Published values gathered from unrelated publications.
Compare with care: the assays were run in different laboratories. “And” joins repeats or separate records; there may be more than shown.

`CN1CCCNC(=O)c2cccc(c2)C(=O)NCCCN(C)CCCNc2cccc3c2C(=O)c2cccc(c2C3=O)NCCC1` gave a body weight of 26 g and 24 g and 27 g (mouse xenograft model; dose not given, day 4).
The AUC(0-inf) of `Cc1cc(C)nc(NC(=S)N2CCN(Cc3ccc(C(F)(F)F)cc3)CC2)c1` is reported as 14700 ng·h/mL (plasma; intraperitoneal, 30 mg/kg).
`Cc1ncsc1-c1ccc(C(C)NC(=O)C2CC(O)CN2C(=O)C(NC(=O)CCCCCCCCCCN2CCCC(Nc3ncc(Cl)c(Nc4ccccc4S(=O)(=O)C(C)C)n3)C2)C(C)(C)C)cc1` (stereo not drawn): “log2 fold change” -2.18 (22Rv1; RNA-seq, refers to: TEF mRNA; concentration not given; baseline: DMSO).
With `C/C(N)=N/C(=N\S(=O)(=O)c1ccc(C(F)(F)F)cc1)N1C[C@H](c2ccccc2)C(c2ccc(Cl)cc2)=N1` the AUC(0-inf) was 56600 ng·h/mL (male C57BL/6 mouse, liver; oral, 10 mg/kg).
The AUC(0-inf) of `COCC1CN(C2CCN(c3cc(OC)c(Nc4ncc(Br)c(Nc5ccc6c(c5P(C)(C)=O)OCCO6)n4)cc3C)CC2)C1` is reported as 53600 ng·h/mL (EGFR-mutant NSCLC patients, plasma; oral, 240 mg single dose, geometric mean).
For `COc1cnc2cccc(N3CCc4c(cc(Cn5ccnc5)cc4-c4cn(C)nc4C(F)(F)F)C3=O)c2c1`, the AUC(0-inf) was 2020 ng·h/mL (male CD-1 mouse, plasma; intravenous, 3 mg/kg).
`Nc1ncc(-c2cc(-c3cnn(CC(F)(F)F)c3)ncc2F)nc1C(=O)NC1CNCC(F)C1` (stereo not drawn) gave a remaining binding of 100% (PLK1; KINOMEscan; 1 µM; baseline: DMSO control).
For `C=C(NC(=O)c1csc(-c2nc3c(cc2O)-c2nc(cs2)C(=O)NC(C(C)O)C(=O)NC(=C(C)OC)c2nc(cs2)C(=O)NC2c4nc(cs4)C(=O)NC(COC(=O)c4c5c6c(cccc6n4O)COC(=O)C(OC4CC(C)(O)C(N(C)C)C(C)O4)C2OC5)c2nc-3cs2)n1)C(N)=O` (stereo not drawn), the AUC(0-inf) was 28100 ng·h/mL (female cynomolgus monkey, plasma; intravenous, 3 mg/kg, single dose, infusion).
For `CC[C@H](C)[C@@H]1NC(=O)[C@H](Cc2ccc(O)cc2)NC(=O)CCCSC[C@@H](C(=O)N(CC(=O)N[C@@H](CC(C)C)C(=O)NCC(N)=O)Cc2ccc(F)cc2)NC(=O)[C@H](CC(N)=O)NC(=O)[C@H](CCC(N)=O)NC1=O`, the AUC(0-inf) was 0.151 ng·h/mL (healthy women, plasma; intranasal, 400 µg single dose).
`Cc1cc(NC(=O)[C@H](O)c2cc(F)cc(F)c2)ccc1-c1cnc(N)c(C(=O)NC(C)C)c1` gave an AUC(0-inf) of 1210 ng·h/mL (female nude mouse, plasma; oral, 3 mg/kg, single dose).
`N=C(N)NCCC[C@@H]1NC(=O)[C@H](CO)NC(=O)[C@@H](NC(=O)[C@H](CO)NC(=O)[C@H](CO)NC(=O)[C@H](Cc2c[nH]c3ccccc23)NC(=O)CNC(=O)[C@H](CO)NC(=O)[C@@H](N)Cc2c[nH]c3ccccc23)CSSC[C@@H](C(=O)NCC(=O)O)NC(=O)[C@H](CO)NC1=O` has an AUC(0-inf) of 824 ng·h/mL (patients, plasma; intravenous, 10 mg/kg, thrice weekly, geometric mean).
The IC50 of `CNS(=O)(=O)Nc1nccc(Cc2c(C)c3ccc(Oc4ncccc4F)cc3oc2=O)c1F` is reported as 3.25 nM (NCI-H2405; cell viability, CellTiter-Glo; 7 days).

Some of these lines once more:
`CN1CCCNC(=O)c2cccc(c2)C(=O)NCCCN(C)CCCNc2cccc3c2C(=O)c2cccc(c2C3=O)NCCC1` gave a body weight of 26 g and 24 g and 27 g (mouse xenograft model; dose not given, day 4).
